Published values pooled from the literature.
Each numbered part is a random draw from the data of one study; scales do not carry over between parts.
UniProt P07949, sequence (whole entry, unmodified, looked up): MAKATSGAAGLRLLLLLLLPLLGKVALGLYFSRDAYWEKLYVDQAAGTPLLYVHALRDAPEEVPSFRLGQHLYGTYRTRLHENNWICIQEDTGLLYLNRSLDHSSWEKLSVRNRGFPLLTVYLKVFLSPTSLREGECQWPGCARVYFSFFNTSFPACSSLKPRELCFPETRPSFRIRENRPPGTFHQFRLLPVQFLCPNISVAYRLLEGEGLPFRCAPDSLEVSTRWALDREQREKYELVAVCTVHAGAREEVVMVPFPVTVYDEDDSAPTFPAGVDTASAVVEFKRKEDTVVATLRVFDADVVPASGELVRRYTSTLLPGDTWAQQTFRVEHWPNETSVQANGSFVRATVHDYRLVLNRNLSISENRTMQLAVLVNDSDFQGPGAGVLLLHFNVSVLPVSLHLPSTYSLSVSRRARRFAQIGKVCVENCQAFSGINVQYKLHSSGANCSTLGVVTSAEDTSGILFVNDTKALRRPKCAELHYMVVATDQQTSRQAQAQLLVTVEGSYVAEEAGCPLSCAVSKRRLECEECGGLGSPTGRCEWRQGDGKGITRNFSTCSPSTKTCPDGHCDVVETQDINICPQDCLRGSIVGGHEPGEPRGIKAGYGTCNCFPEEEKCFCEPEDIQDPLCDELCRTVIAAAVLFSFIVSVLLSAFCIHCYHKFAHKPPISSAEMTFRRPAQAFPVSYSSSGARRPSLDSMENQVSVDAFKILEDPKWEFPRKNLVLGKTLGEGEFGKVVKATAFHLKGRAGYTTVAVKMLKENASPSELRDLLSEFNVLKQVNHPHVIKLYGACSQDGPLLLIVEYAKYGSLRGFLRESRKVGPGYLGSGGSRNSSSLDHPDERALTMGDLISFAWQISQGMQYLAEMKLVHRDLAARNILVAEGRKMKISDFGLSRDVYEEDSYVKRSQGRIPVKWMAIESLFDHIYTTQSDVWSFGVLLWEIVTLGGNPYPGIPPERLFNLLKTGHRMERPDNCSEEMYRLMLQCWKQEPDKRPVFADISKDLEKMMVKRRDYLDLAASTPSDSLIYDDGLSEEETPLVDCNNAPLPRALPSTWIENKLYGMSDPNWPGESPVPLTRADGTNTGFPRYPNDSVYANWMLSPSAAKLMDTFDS
UniProt Q9UEE5, sequence (whole entry, looked up): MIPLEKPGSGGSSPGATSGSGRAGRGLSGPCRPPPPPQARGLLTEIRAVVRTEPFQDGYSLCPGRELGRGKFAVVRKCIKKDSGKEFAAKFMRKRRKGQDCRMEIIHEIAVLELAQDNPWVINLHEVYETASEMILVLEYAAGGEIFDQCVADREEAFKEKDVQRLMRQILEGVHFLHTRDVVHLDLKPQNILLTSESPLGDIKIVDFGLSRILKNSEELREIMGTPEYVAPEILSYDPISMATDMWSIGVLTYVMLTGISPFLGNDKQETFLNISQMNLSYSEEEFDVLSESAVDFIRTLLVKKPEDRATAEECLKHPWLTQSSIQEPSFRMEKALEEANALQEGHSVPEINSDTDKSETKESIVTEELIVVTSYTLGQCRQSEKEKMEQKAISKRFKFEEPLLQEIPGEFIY
UniProt Q13233, sequence (whole entry, looked up): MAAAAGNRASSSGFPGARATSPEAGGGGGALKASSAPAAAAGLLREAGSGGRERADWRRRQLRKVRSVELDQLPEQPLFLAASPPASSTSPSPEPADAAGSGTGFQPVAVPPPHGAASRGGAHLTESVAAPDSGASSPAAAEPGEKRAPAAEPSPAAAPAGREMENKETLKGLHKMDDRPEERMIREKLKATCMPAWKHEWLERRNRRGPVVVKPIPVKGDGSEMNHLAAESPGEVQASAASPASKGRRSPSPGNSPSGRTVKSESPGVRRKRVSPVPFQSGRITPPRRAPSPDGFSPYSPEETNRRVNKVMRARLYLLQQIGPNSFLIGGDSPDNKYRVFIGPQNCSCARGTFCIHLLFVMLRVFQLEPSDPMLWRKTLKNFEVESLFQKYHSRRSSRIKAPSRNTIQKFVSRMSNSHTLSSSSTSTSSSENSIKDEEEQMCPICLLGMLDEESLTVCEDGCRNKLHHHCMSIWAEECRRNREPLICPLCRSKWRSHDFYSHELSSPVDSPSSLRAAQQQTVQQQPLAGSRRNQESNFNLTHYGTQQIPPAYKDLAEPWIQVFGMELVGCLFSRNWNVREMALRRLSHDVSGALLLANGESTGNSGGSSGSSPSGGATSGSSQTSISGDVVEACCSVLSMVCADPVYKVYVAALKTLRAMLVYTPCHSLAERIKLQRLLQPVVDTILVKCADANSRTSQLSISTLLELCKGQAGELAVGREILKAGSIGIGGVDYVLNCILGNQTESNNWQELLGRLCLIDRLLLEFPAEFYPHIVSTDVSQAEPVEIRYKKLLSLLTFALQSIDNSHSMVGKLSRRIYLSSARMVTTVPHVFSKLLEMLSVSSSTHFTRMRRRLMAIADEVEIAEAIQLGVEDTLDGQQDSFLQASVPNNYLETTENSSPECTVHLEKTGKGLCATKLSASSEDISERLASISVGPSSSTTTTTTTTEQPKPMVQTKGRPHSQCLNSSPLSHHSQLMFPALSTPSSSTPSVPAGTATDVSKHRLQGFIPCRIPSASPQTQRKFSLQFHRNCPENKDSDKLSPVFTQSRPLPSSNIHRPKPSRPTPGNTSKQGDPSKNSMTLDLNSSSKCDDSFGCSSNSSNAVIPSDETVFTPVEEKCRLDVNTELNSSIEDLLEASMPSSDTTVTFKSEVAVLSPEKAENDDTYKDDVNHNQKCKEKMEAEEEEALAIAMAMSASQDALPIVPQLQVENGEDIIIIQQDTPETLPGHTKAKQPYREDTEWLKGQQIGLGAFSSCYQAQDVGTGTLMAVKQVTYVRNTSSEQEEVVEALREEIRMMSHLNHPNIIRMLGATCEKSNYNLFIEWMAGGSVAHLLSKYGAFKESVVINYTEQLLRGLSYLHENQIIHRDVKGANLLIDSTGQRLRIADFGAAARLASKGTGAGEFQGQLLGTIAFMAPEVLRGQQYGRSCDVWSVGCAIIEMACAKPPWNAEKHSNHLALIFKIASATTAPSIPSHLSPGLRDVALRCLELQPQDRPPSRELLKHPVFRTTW
UniProt P57059, sequence (whole entry, looked up): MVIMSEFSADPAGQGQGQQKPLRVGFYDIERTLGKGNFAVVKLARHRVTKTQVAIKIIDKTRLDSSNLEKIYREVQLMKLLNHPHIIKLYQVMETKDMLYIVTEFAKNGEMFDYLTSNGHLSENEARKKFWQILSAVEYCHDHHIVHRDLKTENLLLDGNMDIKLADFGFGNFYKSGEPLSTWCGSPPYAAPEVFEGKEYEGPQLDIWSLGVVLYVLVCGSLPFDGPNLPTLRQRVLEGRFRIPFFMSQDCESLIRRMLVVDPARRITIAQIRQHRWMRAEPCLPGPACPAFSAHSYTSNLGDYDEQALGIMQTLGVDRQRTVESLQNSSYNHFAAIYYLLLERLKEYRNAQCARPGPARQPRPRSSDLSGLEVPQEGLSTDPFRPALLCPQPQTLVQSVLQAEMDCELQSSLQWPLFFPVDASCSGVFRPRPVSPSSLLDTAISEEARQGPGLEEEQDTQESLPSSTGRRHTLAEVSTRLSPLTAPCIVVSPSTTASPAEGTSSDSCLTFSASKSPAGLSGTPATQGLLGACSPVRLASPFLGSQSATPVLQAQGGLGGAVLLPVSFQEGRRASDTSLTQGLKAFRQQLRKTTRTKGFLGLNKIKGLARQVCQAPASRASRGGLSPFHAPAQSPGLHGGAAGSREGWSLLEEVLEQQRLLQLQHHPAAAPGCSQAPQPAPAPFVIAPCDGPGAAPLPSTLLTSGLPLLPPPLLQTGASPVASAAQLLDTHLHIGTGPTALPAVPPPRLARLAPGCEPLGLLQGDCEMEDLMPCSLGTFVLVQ
UniProt P07333, sequence (whole entry, looked up): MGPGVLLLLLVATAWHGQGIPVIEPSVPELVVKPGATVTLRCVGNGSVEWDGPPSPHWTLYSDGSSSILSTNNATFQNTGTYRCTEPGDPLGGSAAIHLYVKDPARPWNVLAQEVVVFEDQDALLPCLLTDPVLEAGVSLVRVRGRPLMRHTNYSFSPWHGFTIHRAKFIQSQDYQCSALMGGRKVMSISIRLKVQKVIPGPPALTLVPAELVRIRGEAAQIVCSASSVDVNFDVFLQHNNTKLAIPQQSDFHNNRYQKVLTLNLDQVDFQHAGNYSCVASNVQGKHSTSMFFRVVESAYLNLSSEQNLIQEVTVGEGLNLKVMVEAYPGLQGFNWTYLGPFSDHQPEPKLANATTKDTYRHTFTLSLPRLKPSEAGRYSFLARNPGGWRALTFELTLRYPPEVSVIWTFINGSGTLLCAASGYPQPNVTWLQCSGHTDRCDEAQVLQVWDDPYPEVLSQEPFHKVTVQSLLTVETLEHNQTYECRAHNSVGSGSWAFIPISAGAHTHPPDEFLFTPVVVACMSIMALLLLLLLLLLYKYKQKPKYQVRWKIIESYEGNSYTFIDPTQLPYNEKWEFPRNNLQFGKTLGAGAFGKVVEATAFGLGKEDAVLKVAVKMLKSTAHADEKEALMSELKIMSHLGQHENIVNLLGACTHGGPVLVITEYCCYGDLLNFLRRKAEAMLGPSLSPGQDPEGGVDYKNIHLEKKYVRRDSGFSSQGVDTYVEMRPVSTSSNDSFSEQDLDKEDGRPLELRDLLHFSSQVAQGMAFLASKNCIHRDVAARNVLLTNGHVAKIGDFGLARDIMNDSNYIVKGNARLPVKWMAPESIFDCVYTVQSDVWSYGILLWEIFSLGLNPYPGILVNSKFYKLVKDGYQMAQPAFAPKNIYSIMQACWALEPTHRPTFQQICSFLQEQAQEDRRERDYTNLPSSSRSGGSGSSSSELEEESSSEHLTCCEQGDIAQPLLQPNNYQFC

Sample 1
Structure (SMILES): c1ccc(N2CCN(Cc3nc4ccccc4[nH]3)CC2)nc1
Tested at: 1 µM
target	assay	remaining binding
EPHB2 (Homo sapiens, UniProt P29323)	cell-free assay, competition with immobilised ligand	98%
Macrophage colony-stimulating factor 1 receptor, autoinhibited (CSF1R, Homo sapiens, UniProt P07333)	cell-free assay, competition with immobilised ligand	100%
MAP3K1 (Homo sapiens, UniProt Q13233)	binding, competition with immobilised ligand	99%
RET (Homo sapiens, UniProt P07949, M918T)	cell-free assay, competition with immobilised ligand	100%
CDK11A (Homo sapiens, UniProt Q9UQ88)	binding, competition with immobilised ligand	100%
LATS2 (Homo sapiens, UniProt Q9NRM7)	binding, competition with immobilised ligand	75%
SNRK (Homo sapiens, UniProt Q9NRH2)	binding, competition with immobilised ligand	100%
MAPK1 (Homo sapiens, UniProt P28482)	binding, competition with immobilised ligand	100%
LIM domain kinase 1 (LIMK1, Homo sapiens, UniProt P53667)	binding, competition with immobilised ligand	100%
PRKX (Homo sapiens, UniProt P51817)	cell-free assay, competition with immobilised ligand	100%
EGFR (Homo sapiens, UniProt P00533, del747-752/P753S)	cell-free assay, competition with immobilised ligand	100%
ACVR2A (Homo sapiens, UniProt P27037)	cell-free assay, competition with immobilised ligand	100%
Tyrosine-protein kinase ABL1, non-phosphorylated (ABL1, Homo sapiens, UniProt P00519, Q252H)	binding, competition with immobilised ligand	93%
MAST1 (Homo sapiens, UniProt Q9Y2H9)	binding, competition with immobilised ligand	65%
CDK18 (Homo sapiens, UniProt Q07002)	binding, competition with immobilised ligand	94%
MAPK9 (Homo sapiens, UniProt P45984)	binding, competition with immobilised ligand	100%
ACVR2B (Homo sapiens, UniProt Q13705)	binding, competition with immobilised ligand	100%
EGFR (Homo sapiens, UniProt P00533, L858R/T790M)	cell-free assay, competition with immobilised ligand	100%
Aurora kinase A (AURKA, Homo sapiens, UniProt O14965)	cell-free assay, competition with immobilised ligand	89%
DCLK1 (Homo sapiens, UniProt O15075)	binding, competition with immobilised ligand	100%
ERBB2 (Homo sapiens, UniProt P04626)	binding, competition with immobilised ligand	78%
CDKL2 (Homo sapiens, UniProt Q92772)	binding, competition with immobilised ligand	100%
SIK1 (Homo sapiens, UniProt P57059)	competition binding	100%

Sample 2
Target: Histone acetyltransferase KAT6A, winged helix 1, GST fusion (KAT6A, Homo sapiens, UniProt Q92794, residues 1-85)
Technique: protein binding microarray
Molecule type: double-stranded DNA, one strand shown
Matrix: in vitro
Tested at: not given
Setting: 8-mer, flanks averaged, mean of 2 arrays, mostly near background
Relative to: not given
Reading: higher = stronger binding
Residues (chain): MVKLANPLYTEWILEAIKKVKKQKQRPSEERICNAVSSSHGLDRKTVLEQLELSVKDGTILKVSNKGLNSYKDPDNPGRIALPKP
Sequence	E-score
AGACAGCC	0.033
CTCGTTAA	-0.125
CGAAAGTA	-0.0773
ACTGTTAT	-0.117
ACCTCTAC	-0.0281
CAACCAGA	-0.241
AGTCTGAT	-0.274
AAACGCCG	0.362

Sample 3
Compound: c1ccc2c(-c3ccncc3)c[nH]c2c1
Observed: enzyme activity
Action: inhibitor
Tested at: 0.5 µM
Relative to: control
target	remaining activity [%]
EPHB4 (Homo sapiens, UniProt P54760)	89.7
SRMS (Homo sapiens, UniProt Q9H3Y6)	107
AXL (Homo sapiens, UniProt P30530)	99.8
STK17A (Homo sapiens, UniProt Q9UEE5)	93
MAP4K4 (Homo sapiens, UniProt O95819)	54.4

Sample 4
Target: Phosphate system positive regulatory protein PHO4, full length, GST-tagged (PHO4, Saccharomyces cerevisiae, UniProt P07270, residues 1-312)
Technique: competition protein-binding microarray
Molecule type: double-stranded DNA, one strand shown
Matrix: in vitro
Tested at: 2 µM
Setting: whole 60-bp probe, lowest competitor level
Added: Cbf1 competitor, 0.05 µM
Reading: higher = stronger binding
Construct (chain): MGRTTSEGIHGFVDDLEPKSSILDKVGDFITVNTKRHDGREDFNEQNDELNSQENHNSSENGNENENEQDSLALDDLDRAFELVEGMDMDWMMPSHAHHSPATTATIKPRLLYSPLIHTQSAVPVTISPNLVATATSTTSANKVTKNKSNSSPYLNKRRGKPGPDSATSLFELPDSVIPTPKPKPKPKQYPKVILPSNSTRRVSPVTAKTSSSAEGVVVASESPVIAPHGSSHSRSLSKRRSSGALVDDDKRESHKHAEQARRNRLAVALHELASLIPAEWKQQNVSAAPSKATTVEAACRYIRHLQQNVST
Sequence	fluorescence intensity [a.u.]
CATACCCAACCTTGCTCGGTGGGTGAAGATATTTGTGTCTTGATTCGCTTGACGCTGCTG	3870
ACTTTGGAAACTGTTTCCGTGATGGTTTCAGTGCCAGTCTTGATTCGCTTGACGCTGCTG	3500
GAATAGGGATATCTGCACATGGGGCCTCGAGCATGGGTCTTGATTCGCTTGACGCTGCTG	12200
GGATTTGGCTACGGCCACGTCCAATTTTCACTTGCTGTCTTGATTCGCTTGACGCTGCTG	3390
GACAAGGACATTTTGCACGTTGACATTCCGGTAACTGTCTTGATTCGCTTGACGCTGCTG	11800
CGGGGTTAAGTTTGTCACTCAACTTGCTTGCAGCAGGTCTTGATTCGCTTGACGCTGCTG	3170
TGGCAAGTCTTGTAGCATGTGCGCTAACATCGTTTAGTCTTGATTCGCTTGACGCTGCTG	11900
ATATCCGGTATTTTGCCCGTGATGGTTGGTAACTTCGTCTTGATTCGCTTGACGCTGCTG	5300

Sample 5
Target: Interferon regulatory factor 3, full length, phosphomimetic (IRF3, Homo sapiens, UniProt Q14653, residues 1-427, S386D/S396D/S398D/S402D/T404D/S405D)
Technique: protein-binding microarray
Molecule type: double-stranded DNA, one strand shown
Matrix: in vitro
Tested at: 2540 nM top
Setting: 60-bp whole probe
Added: salmon DNA 0.4 mg/ml
Relative to: random background probes
Reading: higher = stronger binding
Constant ends, left off below: GCCTAGCAC … GTCTTGATTCGCTTGACGCTGCTG
Target sequence (chain): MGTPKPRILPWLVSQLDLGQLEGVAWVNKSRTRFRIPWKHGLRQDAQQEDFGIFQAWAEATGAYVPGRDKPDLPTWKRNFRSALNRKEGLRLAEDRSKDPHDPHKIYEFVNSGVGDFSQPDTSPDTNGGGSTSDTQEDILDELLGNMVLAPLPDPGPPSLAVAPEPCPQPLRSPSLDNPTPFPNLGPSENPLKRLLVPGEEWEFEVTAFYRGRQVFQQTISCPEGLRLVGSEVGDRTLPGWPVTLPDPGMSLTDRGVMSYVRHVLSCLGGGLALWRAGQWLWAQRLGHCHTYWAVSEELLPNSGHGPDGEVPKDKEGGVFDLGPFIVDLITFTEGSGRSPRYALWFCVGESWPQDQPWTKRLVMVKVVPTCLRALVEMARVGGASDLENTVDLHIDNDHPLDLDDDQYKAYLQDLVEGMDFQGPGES
Sequence	fitted relative affinity
GACGGTATCGACATTGGGGACGTGCTA	0.663 z-score
TCAGCTCACACCTGTCATACTGTGCTA	-0.0593 z-score
TTAGGTTTCTTTTCCCTTTAGTGCTAG	5.86 z-score
TTTTATTTATAAATTATCTTGTGCTAG	1.7 z-score
TCAGTTTACATTTTCCAACTGTGCTAG	3.93 z-score
GACGAACCGAGACTGGAGACGTGCTAG	-0.148 z-score
TCACTTTACTCACTCGGACTGTGCTAG	1.01 z-score
GACCGTCTCGGTCTCGGGACGTGCTAG	1.9 z-score

Further values, each from its own experiment
SMILES	cell line	assay	setting	endpoint	result
CC(C)(C)c1cnc(CSc2cnc(NC(=O)C3CCN(CCCCSc4cccc5c4C(=O)N(C4CCC(=O)NC4=O)C5=O)CC3)s2)o1 (centres unmarked)	HH	CCK-8	500 nM	viability	0%

For quick reference, copied from above (sample 4):
Sequence	fluorescence intensity [a.u.]
CGGGGTTAAGTTTGTCACTCAACTTGCTTGCAGCAGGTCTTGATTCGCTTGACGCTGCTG	3170
TGGCAAGTCTTGTAGCATGTGCGCTAACATCGTTTAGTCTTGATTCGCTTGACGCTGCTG	11900
ATATCCGGTATTTTGCCCGTGATGGTTGGTAACTTCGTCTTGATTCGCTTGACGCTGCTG	5300
